Measured values of several laboratories.
Every numbered part comes from another study and shows a few of its results, in no order.

Study 1 — technique: protein binding microarray; molecule type: double-stranded DNA, one strand shown; matrix: in vitro; tested at: not given; baseline: not given; direction: higher = stronger binding; quantity: E-score
Target: Histone acetyltransferase KAT6A, both winged helices, GST fusion (KAT6A, Homo sapiens, UniProt Q92794, residues 1-181)
Setting: 8-mer, flanks averaged, mean of 2 arrays, mostly near background
Construct (chain): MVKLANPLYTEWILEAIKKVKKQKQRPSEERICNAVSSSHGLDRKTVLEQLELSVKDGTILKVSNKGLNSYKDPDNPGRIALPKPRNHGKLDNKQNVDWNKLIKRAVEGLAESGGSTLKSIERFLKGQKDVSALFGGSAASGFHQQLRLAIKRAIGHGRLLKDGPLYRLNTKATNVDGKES
CGCAAAGA: 0.0892
CCTTTATC: -0.0593
CATCCGGG: -0.00232
TGCTAAAA: -0.069
CTTGTCTA: -0.104
CAATAGTG: 0.0295
CCATGAAC: -0.103
TAGAACGA: -0.0337
ACAAGACT: -0.213
AGGACACC: -0.0341
CGTTACTA: -0.0673
AGAGATCG: 0.00395
CCCAAGTA: -0.128
GCGCGAGA: 0.252
ATGTTCAC: -0.1
TCACTCCA: -0.197
AGGCCGGA: 0.0152
ATTGACAA: -0.0842
GCAAATAC: -0.069
AGAAGTGG: -0.222
AGAATGCC: 0.0591
AGTTGTAG: -0.0673
AGATATAG: -0.045

Study 2 — technique: RNA Bind-n-Seq; molecule type: RNA; matrix: in vitro; tested at: 365 nM; baseline: no-protein control; direction: higher = stronger binding; quantity: RBNS enrichment (R)
Target: RNA binding protein fox-1 homolog 2, RRM domain, GST-SBP tag (RBFOX2, Homo sapiens, UniProt O43251-10, residues 100-194)
Setting: natural RNA segment, single round, ends assumed
All sequences stand within: GGGAGUUCUACAGUCCGACGAUC … UGGAAUUCUCGGGUGCCAA
Residues (chain): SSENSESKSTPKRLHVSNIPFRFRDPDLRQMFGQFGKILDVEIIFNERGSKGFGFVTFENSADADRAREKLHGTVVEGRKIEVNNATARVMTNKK
UAGUCUUUCUGUGUGACUUAUUAGGAGAUAGGAAGAGCAUUGGGAAACUUGCACAGCUAGCUAUGCAUCUACAUUUUGGUUUGGGGUUAGUUAUGAAAUGUUCUUAAUAU: 1.35
AAAGUAGAGACGAUGGGGACUGUCUCACUGUGACAAGGUAAGAUUUAAGUGAGAUGCACACAAAAAGCUCAGCACAGUGUCUGGCAUCUAAUAUGUGCAGGGCAGAUGUC: 0.93
UGUUCAGAUGUCAUGUGCUGUCUACAUCAUGAGCUUUGGCUUAGGAGAACCUACAAAGCUGGCAGAGUUUUGUCUUGCAUUGCGCCUCUCAGUGAACCUUCUCAGUAAAU: 0.419
CAUACAGGAGCCUCGGUUUUUCAGCAAAACGCGGCCAGUCCCCUUCUCCACUGCUGCCUCCCAGCAGAGGGCCCCAGGAUCUCCAAGGUCCCAGCUAUGGCUUUGGACAA: 0.173
AUUCCAAGAGUAGUGGUGUAAAUUGCCUUGGAGCCCUGCAUCCACGUCUUGUAACUAACUUUUGAAUUUUGCCUGACAUGAUUCUCUCUUGAUGAAGAAAUGACAUAUAU: 0.735
GAAUCACUUUUGUGUUUGAUAUAGUAAAACAAUGUGAUUCAUUCCAAAGUAACAGAAGGUUAUUUGUAAGAAAGUUAAAGGCUUGUGAACAAAGAAAGCUAAGCUGUUGU: 0.425
ACCUCUCUCCUCUCCCCUCACCCUCCUGCCCCUGGCCACUGCAGGAUCAGGAGGGGAGAAGAAGGAGCCUCUGCUGCCUCCCAGGCUGCUGGGACUGGGCUGGUUUUGUC: 0.434
UGUGGACAUAAAUGUAUCUAAAUAAAACUUUCCCUAGCACUGUGGCUGACCUCACCCUUACUUUUAUACUUUAGUAUGAAACUGAUGAGAACUUUGGUAGUGAGUAUUUU: 0.55
CACCAUGUGGGGAGCGGGAGCAGGACUACUGUGCCCUUGGCCUGACGUGUGGGGAGAGAGGAGCAUGGCCAGUUCCCUGCAGGCUCUGGAAAGCAUGGGCCAUUGUCACC: 2.49
UGUUUUUGUUUUGUUUUUGUUUUUUGUUUUUUACAUAGUACCUUGAAAAUUAUGAAUUUUUUAUCCAUUACUAACCUUUAAUUUAAUCAAUCAUGUACUUUAGUUUAAUG: 0.873
GCUACUCAGGAGGCUGAGGCAGGAGAAUCGCUUGAACCCGGAAGGCAGAGGUUGCAGUGAGCUGAGAUUGUGCCACUGCACGCCAGCCUGGGCAAGAGAGUAAGACUCUC: 1.61
CCUUCAUUUAACUCUUUGAAACUGUAUCAUCUUUGCCAAGUAAGAGUGGUGGCCUAUUUCAGCUGCUUUGACAAAAUGACUGGCUCCUGACUUAACGUUCUAUAAAUGAA: 0.544

Study 3 — technique: RNA Bind-n-Seq; molecule type: RNA; matrix: in vitro; tested at: 1 µM; setting: whole 134-nt RNA, ends assumed; with: 150 mM KCl; baseline: input library; direction: higher = stronger binding; quantity: log2 enrichment
Target: Ras GTPase-activating protein-binding protein 1, RRM domain (G3BP1, Homo sapiens, UniProt Q13283)
UniProt Q13283, sequence (whole entry, looked up): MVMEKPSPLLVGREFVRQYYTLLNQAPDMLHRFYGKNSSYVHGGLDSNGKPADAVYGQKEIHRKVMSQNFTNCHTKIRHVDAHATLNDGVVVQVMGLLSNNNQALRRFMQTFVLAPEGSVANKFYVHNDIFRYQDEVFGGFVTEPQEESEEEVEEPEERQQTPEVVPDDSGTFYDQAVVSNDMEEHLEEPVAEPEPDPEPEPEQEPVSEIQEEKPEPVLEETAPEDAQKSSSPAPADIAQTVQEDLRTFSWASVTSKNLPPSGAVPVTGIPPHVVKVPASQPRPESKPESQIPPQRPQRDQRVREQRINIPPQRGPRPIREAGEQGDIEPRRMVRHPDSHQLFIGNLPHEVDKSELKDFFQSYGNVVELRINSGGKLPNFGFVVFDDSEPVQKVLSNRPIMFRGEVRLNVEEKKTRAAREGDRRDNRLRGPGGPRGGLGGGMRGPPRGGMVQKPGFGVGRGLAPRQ
All sequences stand within: GGGAGUUCUACAGUCCGACGAUC … UGGAAUUCUCGGGUGUCAAGG
AGUCCUGUGCUACACAUCGUAUGUACCGAAUCAAAUUUAAACCCAAACCCCCCCAAAAAAGUAUUAUGUUACGCCGUUCGGAUCUGCACU: -0.16
GUCCUGUGCUACACAUCGUAUGUACCGAAUCGGGGCCCCCGGGCCCCCGGGCCCCCGGAAAGUAUUAUGUUACGCCGUUCGGAUCUGCAC: -0.749
UCCCAAUGCUCGGAGGAAGCCCAAGGGCAGCCCUCGUGUACCUGAUGCCAAGAAGCCUAAACCCAAGAAAGUAGCUCCCCUGAAAAUCAA: -0.0519
UAACUUUAGAGGAGGAUCUGAUGGAUAUGGCAGUGGACGUGGAUUUGGGGAUGGCAAUAAUGGGUAUGGAGGAGGACCUGGAGGUGGCAA: -0.617
GUCCUGUGCUACACAUCGUAUGUACCGAAUCGGGGUUUUUGGGGAGGGGUUUUUGGGGAAAGUAUUAUGUUACGCCGUUCGGAUCUGCAC: 0.906
CCUGUGCUACACAUCGUAUGUACCGAAUCAAAUUUUUUUAAACCCCCCCAAAUUUUUAAAAAAGUAUUAUGUUACGCCGUUCGGAUCUGC: -1.01
CAAGUCCUGUGCUACACAUCGUAUGUACCGAAUCGGGGCCCGGGGCCCGGGCCCGGAAAGUAUUAUGUUACGCCGUUCGGAUCUGCACUU: -0.721
CUGUGCUACACAUCGUAUGUACCGAAUCAAAGUGUGUGUGUGUGUAAAGUGUGUGUGUAAAAAAGUAUUAUGUUACGCCGUUCGGAUCUG: -0.157
UCCUGUGCUACACAUCGUAUGUACCGAAUCAAAGUGUGUGUGUGAAAUGUGUGUGUGAAAAAAGUAUUAUGUUACGCCGUUCGGAUCUGC: -0.0347
GUCCUGUGCUACACAUCGUAUGUACCGAAUCGGGAAAAAGGGAAAAAAAGGGUUUGGGAAAGUAUUAUGUUACGCCGUUCGGAUCUGCAC: 0.102
CCUGUGCUACACAUCGUAUGUACCGAAUCAAAUUUUUUUAAAUUUUUUUAAAUUUUUAAAAAAGUAUUAUGUUACGCCGUUCGGAUCUGC: -0.546
UGGGAGGUGGAUUUUGUUUAUUUUUUUAGCUCAUUUCCAGGGCUGGGAAUUUUUUUUUAAUAUGUGUCAUGAAUAAAGUUGUUUUUGAAA: 1.44
UCAAGUCCUGUGCUACACAUCGUAUGUACCGAAUCGUGUGUGUGUGUGUGUGUGUAAAGUAUUAUGUUACGCCGUUCGGAUCUGCACUUC: -0.0982
AAGUCCUGUGCUACACAUCGUAUGUACCGAAUCGGGGUGGGGAAAGGGGAAAGGGGAAAGUAUUAUGUUACGCCGUUCGGAUCUGCACUU: 1.28

Study 4 — technique: protein-binding microarray; molecule type: double-stranded DNA, one strand shown; matrix: in vitro; tested at: 2200 nM top; setting: 60-bp whole probe; with: salmon DNA 0.4 mg/ml; baseline: random background probes; direction: higher = stronger binding; quantity: fitted relative affinity; all sequences stand within: GCCTAGCAC … GTCTTGATTCGCTTGACGCTGCTG
Target: Interferon regulatory factor 7, full length, phosphomimetic (IRF7, Homo sapiens, UniProt Q92985, residues 1-503, S471D/S472D/S475D/S476D/S477D/S483D/S484D/S487D)
UniProt Q92985, sequence (whole entry, unmodified, looked up): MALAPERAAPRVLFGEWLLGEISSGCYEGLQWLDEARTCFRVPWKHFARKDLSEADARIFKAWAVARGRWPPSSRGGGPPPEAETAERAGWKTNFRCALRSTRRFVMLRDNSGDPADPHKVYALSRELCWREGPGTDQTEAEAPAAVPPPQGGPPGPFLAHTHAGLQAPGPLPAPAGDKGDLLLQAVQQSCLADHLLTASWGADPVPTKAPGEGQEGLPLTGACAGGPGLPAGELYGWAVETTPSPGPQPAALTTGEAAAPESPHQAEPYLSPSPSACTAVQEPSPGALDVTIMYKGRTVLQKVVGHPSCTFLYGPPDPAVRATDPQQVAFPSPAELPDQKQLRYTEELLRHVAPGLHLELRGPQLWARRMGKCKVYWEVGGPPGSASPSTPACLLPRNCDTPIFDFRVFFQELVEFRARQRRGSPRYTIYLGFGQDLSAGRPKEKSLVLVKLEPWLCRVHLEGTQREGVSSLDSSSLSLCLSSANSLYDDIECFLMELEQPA
TTAGGTTTCCGGTTTCGGTTAGTGCTA: 8.85 z-score
TCAGTTTTCTAAACCATACTGTGCTAG: 2.06 z-score
AGCTATCACTATTCTAGGGAAGTGCTA: -0.652 z-score
TTAGAACTGGGGTTTCTATTAGTGCTA: 0.431 z-score
TCATGTATATATGTGTAACTGTGCTAG: 0.924 z-score
GACGGTATCGGGTTTCGGGTCGTGCTA: 3.42 z-score
GACTAACTGAGTTTCGAGACGTGCTAG: 2.09 z-score
TTAGGTAACGGACTGGGTTAGTGCTAG: -0.325 z-score
GACGAACTGCTTCTCCTGACGTGCTAG: 0.694 z-score
TCACAAGTTTCACGTCTTACTGTGCTA: 1.84 z-score
TTAGGACTGGTGACTGGGTTAGTGCTA: -0.928 z-score
GACGGTATCGGACTGGGGTCGTGCTAG: -0.278 z-score
TCATGCTTAGTATTTTTTACTGTGCTA: 0.313 z-score
TTGGATATCGGGTATCGATTAGTGCTA: 0.219 z-score
GACGATATCAGTCTCGAGATGTGCTAG: 0.379 z-score
CTAGGTATCGGTCTCGGTTAGTGCTAG: 0.855 z-score
TTGGGTATCGGTTTCGGTTAGTGCTAG: 6.86 z-score
TCATTTTTAGAAATTTTTACTGTGCTA: 0.303 z-score
GTAAAATTATTCTGTATATTGTGCTAG: -0.0724 z-score
TTTATTTTTTTTATTTATAAGTGCTAG: 1.77 z-score
GCCGAACTGGGGTTTCGAGACGTGCTA: 0.604 z-score
ATAGAACTGGGGTTTCGATTAGTGCTA: 2.69 z-score
TTAGATTACAGACTGGATTAGTGCTAG: -0.169 z-score
ATATGTGTATATATAATATAGTGCTAG: 0.483 z-score
GACGATCTCAGACTGGAGGCGTGCTAG: -0.307 z-score

Study 5 — technique: universal PBM; molecule type: double-stranded DNA, one strand shown; matrix: in vitro; tested at: 600 nM; direction: higher = stronger binding; quantity: E-score
Target: Sal-like protein 4, full length isoform A (SALL4, Homo sapiens, UniProt Q9UJQ4, residues 1-1053)
UniProt Q9UJQ4, sequence (whole entry, looked up): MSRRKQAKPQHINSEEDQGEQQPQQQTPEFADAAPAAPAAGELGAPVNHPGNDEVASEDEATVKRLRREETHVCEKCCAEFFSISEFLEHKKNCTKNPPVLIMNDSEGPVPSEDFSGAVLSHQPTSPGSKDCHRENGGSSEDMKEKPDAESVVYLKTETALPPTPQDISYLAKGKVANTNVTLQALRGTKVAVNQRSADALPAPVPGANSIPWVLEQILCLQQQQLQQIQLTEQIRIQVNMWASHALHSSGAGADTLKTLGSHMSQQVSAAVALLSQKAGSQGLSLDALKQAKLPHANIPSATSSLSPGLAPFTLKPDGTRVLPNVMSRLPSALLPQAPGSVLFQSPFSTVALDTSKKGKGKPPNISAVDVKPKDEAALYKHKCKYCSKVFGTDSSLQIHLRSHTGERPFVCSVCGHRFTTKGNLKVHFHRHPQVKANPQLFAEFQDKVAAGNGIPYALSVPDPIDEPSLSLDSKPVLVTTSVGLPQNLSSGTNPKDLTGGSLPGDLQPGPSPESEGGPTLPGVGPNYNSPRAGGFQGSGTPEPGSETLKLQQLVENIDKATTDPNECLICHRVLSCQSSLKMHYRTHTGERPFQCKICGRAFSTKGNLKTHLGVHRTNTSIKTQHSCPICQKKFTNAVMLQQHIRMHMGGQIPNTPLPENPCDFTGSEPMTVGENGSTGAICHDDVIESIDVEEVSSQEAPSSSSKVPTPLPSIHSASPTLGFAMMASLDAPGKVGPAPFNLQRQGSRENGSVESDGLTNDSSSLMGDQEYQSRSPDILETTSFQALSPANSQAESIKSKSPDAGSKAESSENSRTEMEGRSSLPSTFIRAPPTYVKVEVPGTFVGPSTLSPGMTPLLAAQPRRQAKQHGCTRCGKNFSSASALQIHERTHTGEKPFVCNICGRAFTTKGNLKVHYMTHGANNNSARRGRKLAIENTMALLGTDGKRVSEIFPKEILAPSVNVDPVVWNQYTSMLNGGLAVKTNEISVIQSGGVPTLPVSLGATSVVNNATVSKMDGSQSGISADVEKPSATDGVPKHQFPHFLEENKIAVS
Setting: 8-mer, flanks averaged, mean of replicates
ATTAGTTC: 0.165
CGCCCACA: -0.14
ACGCCAGT: -0.254
ACGCCTCA: -0.0765
AAGTCACA: 0.141
CGCGCACC: -0.27
AGGCGCCT: -0.217
GGGTGAGA: -0.157
CAACATGA: 0.174
GAGAACGA: 0.00422
CGTACCCC: -0.265
AGACCCTG: -0.209
AGTCCTAA: 0.101
CTCTGTAC: 0.0328
ATGCCGCA: -0.137
ATTGATAC: 0.151
ATCGAGAC: -0.0482
CCCTACGG: -0.184

Repeated from above (study 4):
TTAGGTTTCCGGTTTCGGTTAGTGCTA: 8.85 z-score
TCAGTTTTCTAAACCATACTGTGCTAG: 2.06 z-score
AGCTATCACTATTCTAGGGAAGTGCTA: -0.652 z-score
TTAGAACTGGGGTTTCTATTAGTGCTA: 0.431 z-score
TCATGTATATATGTGTAACTGTGCTAG: 0.924 z-score
GACGGTATCGGGTTTCGGGTCGTGCTA: 3.42 z-score
GACTAACTGAGTTTCGAGACGTGCTAG: 2.09 z-score
TTAGGTAACGGACTGGGTTAGTGCTAG: -0.325 z-score
GACGAACTGCTTCTCCTGACGTGCTAG: 0.694 z-score
TCACAAGTTTCACGTCTTACTGTGCTA: 1.84 z-score
TTAGGACTGGTGACTGGGTTAGTGCTA: -0.928 z-score
GACGGTATCGGACTGGGGTCGTGCTAG: -0.278 z-score
TCATGCTTAGTATTTTTTACTGTGCTA: 0.313 z-score
TTGGATATCGGGTATCGATTAGTGCTA: 0.219 z-score
